# Results of several laboratories.
# A part holds a random share of what one study measured. Changes are numbered by the printed parent chain.

# Block 1
# Substance: PhoQ, residues 284 288 289 292 302 303 SSLVEF
# Method: Sort-seq
# Refers to: YFP reporter
# Sample: E. coli
# Setting: PhoQ-PhoP variant library
# Together with: 10 µM Mg2+
# Relative to: high Mg2+ state
# Reading: higher = stronger signaling
target,fold induction
"PhoP, residues 12 14 15 18 19 VGHWL (Escherichia coli, UniProt P23836)",7.67
"PhoP, residues 12 14 15 18 19 TPWTL (Escherichia coli, UniProt P23836)",1.74
"PhoP, residues 12 14 15 18 19 NFFVT (Escherichia coli, UniProt P23836)",6.26
"PhoP, residues 12 14 15 18 19 LHHYF (Escherichia coli, UniProt P23836)",15

# Block 2
# Target: ABI1, truncated, D143A, DHFR fusion (Arabidopsis thaliana)
# Method: DHFR PCA, deep sequencing
# Sample: yeast
# Setting: methotrexate growth selection, single substitutions
# Together with: (+)-ABA 0.0091 µM
# Relative to: wild-type fitted maximum
# Reading: higher = stronger binding
# Starting sequence: PYL1, truncated, DHFR fusion (Arabidopsis thaliana); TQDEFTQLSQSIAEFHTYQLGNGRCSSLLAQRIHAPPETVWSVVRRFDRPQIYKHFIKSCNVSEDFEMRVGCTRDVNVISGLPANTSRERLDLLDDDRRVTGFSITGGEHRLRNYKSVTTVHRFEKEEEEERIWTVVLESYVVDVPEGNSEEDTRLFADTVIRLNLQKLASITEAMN
Change,relative binding score
I12R,-4.06%
H122N,9.68%
S80L,44.2%
E109Q,2.61%
A35Q,-7.63%
T106Y,5.89%
Q31L,6.18%
D95I,-2.71%
H122E,-9.97%
V161N,22.7%
K116A,5.06%
H110M,30.3%
Y115T,5.18%
E67G,4.89%
R46Q,55.2%
N61C,31.1%
M68L,63.6%
T106S,-2.07%
Y141K,-3.53%
L28P,0.383%
G102M,-1.49%
S59P,3.61%
K58P,-8.66%
S87Q,58.6%
T1F,16.8%

# Block 3
# Target: Sal-like protein 4, full length isoform A (SALL4, Homo sapiens, UniProt Q9UJQ4, residues 1-1053)
# Sequence of UniProt Q9UJQ4 (whole entry, looked up): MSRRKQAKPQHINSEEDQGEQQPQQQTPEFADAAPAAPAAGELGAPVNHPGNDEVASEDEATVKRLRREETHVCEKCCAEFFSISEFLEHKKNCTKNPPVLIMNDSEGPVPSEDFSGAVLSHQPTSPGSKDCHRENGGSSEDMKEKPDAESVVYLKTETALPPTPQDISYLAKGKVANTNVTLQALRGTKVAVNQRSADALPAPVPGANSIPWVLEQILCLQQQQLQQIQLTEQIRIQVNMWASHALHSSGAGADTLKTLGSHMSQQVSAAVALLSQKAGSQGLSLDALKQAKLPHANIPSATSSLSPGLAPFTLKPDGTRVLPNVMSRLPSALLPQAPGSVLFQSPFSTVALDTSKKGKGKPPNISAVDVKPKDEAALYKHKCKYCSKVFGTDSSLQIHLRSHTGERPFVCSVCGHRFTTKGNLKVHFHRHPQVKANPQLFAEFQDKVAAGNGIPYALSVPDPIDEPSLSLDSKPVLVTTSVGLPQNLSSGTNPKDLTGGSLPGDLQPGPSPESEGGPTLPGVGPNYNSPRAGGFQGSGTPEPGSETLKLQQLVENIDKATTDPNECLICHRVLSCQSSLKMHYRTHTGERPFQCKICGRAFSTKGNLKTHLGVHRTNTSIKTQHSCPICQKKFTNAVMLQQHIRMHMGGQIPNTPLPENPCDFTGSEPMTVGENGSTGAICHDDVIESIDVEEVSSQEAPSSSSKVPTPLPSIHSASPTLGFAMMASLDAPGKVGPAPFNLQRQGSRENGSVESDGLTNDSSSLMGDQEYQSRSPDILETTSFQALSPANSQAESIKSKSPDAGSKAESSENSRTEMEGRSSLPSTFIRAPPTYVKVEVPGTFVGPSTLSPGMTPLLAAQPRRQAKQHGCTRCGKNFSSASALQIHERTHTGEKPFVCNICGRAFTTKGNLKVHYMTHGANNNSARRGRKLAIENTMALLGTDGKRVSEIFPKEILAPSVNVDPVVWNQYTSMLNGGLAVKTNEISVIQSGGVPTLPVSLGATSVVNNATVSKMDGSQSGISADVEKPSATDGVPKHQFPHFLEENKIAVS
# Method: universal PBM
# Molecule type: double-stranded DNA, one strand shown
# Sample: in vitro
# Concentration: 600 nM
# Setting: 8-mer, flanks averaged, mean of replicates
# Reading: higher = stronger binding
Oligonucleotide,E-score
TGTATCAA,0.245
CTGACTAA,0.0935
ACGTCAGT,-0.146
GGGCAACC,-0.319
CCATCCCG,-0.342
CACACATC,-0.13
CCAACCCA,-0.156
CACCTATC,0.0194
ATGGGCTC,-0.148
GGGCTTAC,-0.134
CGAACCAG,-0.136
GGGGCACC,-0.384
ACTGACCG,-0.245
CCCTAGAA,-0.0572
AGAGGGAT,-0.0293
CCCACTTC,-0.0761
CCATGTCA,-0.0382
AAACGGCT,-0.1
ATACCTGG,-0.159
ACAGGTTG,-0.00808
GAGCCGCA,-0.258
TGCCTACA,0.058
AAGATCCA,-0.141
TCTCTCCA,-0.118
GAATTTCA,0.22

# Block 4
# Target: Hepatocyte nuclear factor 3-alpha (Foxa1, Mus musculus, UniProt P35582, residues 1-468, full length assumed)
# Sequence of UniProt P35582 (whole entry, looked up): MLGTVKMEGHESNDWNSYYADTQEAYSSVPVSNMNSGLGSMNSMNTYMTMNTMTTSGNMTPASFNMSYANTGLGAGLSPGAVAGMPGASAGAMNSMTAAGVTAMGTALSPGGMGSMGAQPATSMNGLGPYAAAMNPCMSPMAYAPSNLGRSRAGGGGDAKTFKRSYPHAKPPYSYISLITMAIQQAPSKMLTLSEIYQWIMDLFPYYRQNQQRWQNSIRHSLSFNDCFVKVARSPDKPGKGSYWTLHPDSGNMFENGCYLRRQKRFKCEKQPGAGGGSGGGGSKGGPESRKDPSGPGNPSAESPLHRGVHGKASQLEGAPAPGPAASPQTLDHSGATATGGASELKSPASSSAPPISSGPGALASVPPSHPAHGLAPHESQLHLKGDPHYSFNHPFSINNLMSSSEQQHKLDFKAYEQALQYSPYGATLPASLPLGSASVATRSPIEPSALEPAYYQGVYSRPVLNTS
# Method: EMSA with sequencing
# Molecule type: double-stranded DNA, one strand shown
# Sample: in vitro
# Concentration: 10 and 20 nM
# Setting: whole designed probe, mean of two concentrations, ends assumed
# Relative to: negative control set to 0
# Reading: higher = stronger binding
# Constant ends, left off below: GTGAGCGGTGCCCATTGATGGGGAAC … TTTCACTGGGATCGTGGGGAC
Oligonucleotide,normalised bound fraction [ratio]
AGACAAAAAATGTAGTTGTTCAACAGCTCAGGGAAGAAAGCCTGAGCTTGCCACAGGAGGAGACAGGGCTAAGGCTGGGGAGTTGGGGGGAGTGTAAATAAAGTAGAGGACTGGGCAGAGCTACAAGAAATATTTAGCATTCCTGGCTTCCCACAAAGGGTAGGTCAAGGAGAGGGAATGAGCAGTTGGGATG,0.23
AGGCACAAGGTATGAATCACTAAGAATCTAGCAGCAGCTCTAGAAGCCTCCAAAGATAATTGCACTGGGGGTGGAGTTCCCCAACAGGGGGACGTAAATATGAAAGAACAGTGGATGGCCTAAATCAGTATGTGTCACTCTTTGTAAAGAGCCACAAGTGTTTGACTAGGGAAAAAGGAAAAGAGGCGAGAGT,0.0334
ATCTTCCCCCTCTTCCTTGCCCCACCAGCTCACCTTCCCGGGTTATTTGCAGATAGGAAAATAAATAAAGCCGGCATTCGTTAACCCTCTTCTGGCGCAAACTGCTGTTTGCTCTGGATGAATCATGGTCCTTAGGCTCGGCCAGGCTCCGGGAGAGCAAAGCACCGTGTCAGGGCCATGATCCGGGGTGGCC,0.331
ATCCACGAACCTGGCCCTGTCTGGTAACCACAGTGAACCATCGCAAGATACAGCACTATGTGCCCAGTTGTAATGACTCACGGCTGGAAATGTGTCAACACTGGCACATCCTCAGGGACACGGAAGTGTACTTGTTTTTGGAGAGGGACTAGACCTTCATCCTTGAGGTGAAGAAGATTTTCTCTCCAGGGTG,0.0549
GATTTTTCTAGGAAATTACAGGTTTTTTTTTAAATCAAGACCATTGGTATATAGCTGTGCAGTATTTTCTGTATTAATTAAAAATTTCCCTCAAAATTACTTTCATATCCCTTTATCCATTTTTAAATTTATGTAACCCAAATGTTACAGTCTCATGAGGTCAGAGTCTCATTAAGAAAAAATCCTGCATTTT,-0.0529
CCTGCACTCCTGCCGGTGGCCTGACCCCTTCTGCCCTGTGCCAATTGTCTGCACCCTCCATCCGGGGTTTGCCAGTCAGCCGGCCCAGAGCTATGTAATCTACAAGTCTAGATGTGTCCCTATTTGGGCAACTCTGCAAGGGAAAAATAAGAAGTTGTTAGAATGCTAAGAATGCAGAGCATCCGGAGATTCC,-0.0683
GGGTCCCGGGCGGCGGCAGGAATGCAGGAATGCGCACAGGCTGTGGGCGGCCAGGAGGGAGTCCCGGCGCCGGCGGAAGTGTGCCCCAGTCTTTGTGTACCCTGTCCAACACCTCCCCCCGCCAGCGCGGAAGGCCGGGCTACCTGCGCGCCTGGCAGCGCCTGGCAGCCGGCTGGGTGGGGCGCAGGGGAGC,-0.00165
CAGACAACTCTATTTGAATATGAAAATTTCAACTTTAAACCTCTGAACTCTGCTGGGTCTGCAGAGGCGTTTTAATGTCAACCTCAGGAAATGTACTCTTGAAGCAGAATTTACAACTCATCACTGTCACAGTTAGATTAGAGTGTGAGTTAAAGAGTAATACATTAACCAGGGTTAGTGCATGGAGATTGTT,0.0119

# Block 5
# Target: CCND3, cyclin fold, Cln2 fusion (human)
# Method: yeast growth competition, sequencing
# Sample: yeast
# Setting: weak parent motif
# Relative to: not given
# Reading: higher = stronger binding
# Starting sequence: CDKN1B docking peptide (human); PSACRNLFGPVDH
Change,normalised enrichment score
PSASRNLFGPVDH [C4S],0.139
PSAFRNLFGPVDH [C4F],0.149
PSACRNYFGPVDH [L7Y],0.119
PSACRNHFGPVDH [L7H],0.157
PSACRNLFGPVPH [D12P],0.0796
PSACRNLFDPVDH [G9D],0.18
PSACRNLFGPNDH [V11N],0.154
PSACSNLFGPVDH [R5S],0.0374
PSACRTLFGPVDH [N6T],0.125
PSACRNLFFPVDH [G9F],0.105
PSCCRNLFGPVDH [A3C],0.127
PSACENLFGPVDH [R5E],0.151
PSACDNLFGPVDH [R5D],0.0776
PSACRNMFGPVDH [L7M],0.138
PSACRNLFGPVDA [H13A],0.0936
PSAGRNLFGPVDH [C4G],0.058
PSACRNLFGPVCH [D12C],0.144
PSACRNLWGPVDH [F8W],0.133
PSACRNLFGPVDR [H13R],0.129
PSACANLFGPVDH [R5A],0.0585
PSACRNLVGPVDH [F8V],0.0558

# Block 6
# Target: Interferon regulatory factor 5, full length, phosphomimetic (IRF5, Homo sapiens, UniProt Q13568-2, residues 1-514, K96S/S451D/S453D/S456D/S462D)
# Method: protein-binding microarray
# Molecule type: double-stranded DNA, one strand shown
# Sample: in vitro
# Concentration: 250 nM
# Setting: 60-bp whole probe
# Together with: salmon DNA 0.4 mg/ml
# Relative to: random background probes
# Reading: higher = stronger binding
# Constant ends, left off below: GCCTAGCAC … GTCTTGATTCGCTTGACGCTGCTG
Oligonucleotide,log fluorescence [z-score]
CTTTCTATCTCTGTTTTTGCGTGCTAG,3.37
GACGGTATCGACTATCGGGATGTGCTA,4.03
TTAGGTCTCGATTTCGGTTAGTGCTAG,5.43
GACGGTCTCCGTATCGGGACGTGCTAG,0.5
GACGGTATCGACACTTGGGACGTGCTA,1.53
TCATATTAAATTTTCACACTGTGCTAG,1.59
TTAGATATCGCGTATCGATTAGTGCTA,3.29
TCAATTCTTTTTATGCTACTGTGCTAG,0.813
GACGGTTTCGGTATCGTGACGTGCTAG,9.46
GACGATTTCAGTCTCGCGACGTGCTAG,0.985
TTAGGAATGCTTATCCTTTAGTGCTAG,-0.127
ACAAATGGCCAACAAACATTGTGCTAG,0.0797
GACTATTTCGGGTTTCGAGACGTGCTA,5.64
TTAGAACTGGGGTATCGATGAGTGCTA,1.15
GACGGACTGGACGATCGGGACGTGCTA,-0.47
GACGGACTGCTGATCCTGACGTGCTAG,-0.554
TTAGGTATCGGTATCCGTTAGTGCTAG,7.18
TTAGGTCGCGGTATCGGTTAGTGCTAG,3.7
TCATAATTCCTGCCTGAGACTGTGCTA,0.481

# Excerpt of the above (block 4):
Oligonucleotide,normalised bound fraction [ratio]
AGACAAAAAATGTAGTTGTTCAACAGCTCAGGGAAGAAAGCCTGAGCTTGCCACAGGAGGAGACAGGGCTAAGGCTGGGGAGTTGGGGGGAGTGTAAATAAAGTAGAGGACTGGGCAGAGCTACAAGAAATATTTAGCATTCCTGGCTTCCCACAAAGGGTAGGTCAAGGAGAGGGAATGAGCAGTTGGGATG,0.23
AGGCACAAGGTATGAATCACTAAGAATCTAGCAGCAGCTCTAGAAGCCTCCAAAGATAATTGCACTGGGGGTGGAGTTCCCCAACAGGGGGACGTAAATATGAAAGAACAGTGGATGGCCTAAATCAGTATGTGTCACTCTTTGTAAAGAGCCACAAGTGTTTGACTAGGGAAAAAGGAAAAGAGGCGAGAGT,0.0334
ATCTTCCCCCTCTTCCTTGCCCCACCAGCTCACCTTCCCGGGTTATTTGCAGATAGGAAAATAAATAAAGCCGGCATTCGTTAACCCTCTTCTGGCGCAAACTGCTGTTTGCTCTGGATGAATCATGGTCCTTAGGCTCGGCCAGGCTCCGGGAGAGCAAAGCACCGTGTCAGGGCCATGATCCGGGGTGGCC,0.331
ATCCACGAACCTGGCCCTGTCTGGTAACCACAGTGAACCATCGCAAGATACAGCACTATGTGCCCAGTTGTAATGACTCACGGCTGGAAATGTGTCAACACTGGCACATCCTCAGGGACACGGAAGTGTACTTGTTTTTGGAGAGGGACTAGACCTTCATCCTTGAGGTGAAGAAGATTTTCTCTCCAGGGTG,0.0549
GATTTTTCTAGGAAATTACAGGTTTTTTTTTAAATCAAGACCATTGGTATATAGCTGTGCAGTATTTTCTGTATTAATTAAAAATTTCCCTCAAAATTACTTTCATATCCCTTTATCCATTTTTAAATTTATGTAACCCAAATGTTACAGTCTCATGAGGTCAGAGTCTCATTAAGAAAAAATCCTGCATTTT,-0.0529
CCTGCACTCCTGCCGGTGGCCTGACCCCTTCTGCCCTGTGCCAATTGTCTGCACCCTCCATCCGGGGTTTGCCAGTCAGCCGGCCCAGAGCTATGTAATCTACAAGTCTAGATGTGTCCCTATTTGGGCAACTCTGCAAGGGAAAAATAAGAAGTTGTTAGAATGCTAAGAATGCAGAGCATCCGGAGATTCC,-0.0683
GGGTCCCGGGCGGCGGCAGGAATGCAGGAATGCGCACAGGCTGTGGGCGGCCAGGAGGGAGTCCCGGCGCCGGCGGAAGTGTGCCCCAGTCTTTGTGTACCCTGTCCAACACCTCCCCCCGCCAGCGCGGAAGGCCGGGCTACCTGCGCGCCTGGCAGCGCCTGGCAGCCGGCTGGGTGGGGCGCAGGGGAGC,-0.00165
CAGACAACTCTATTTGAATATGAAAATTTCAACTTTAAACCTCTGAACTCTGCTGGGTCTGCAGAGGCGTTTTAATGTCAACCTCAGGAAATGTACTCTTGAAGCAGAATTTACAACTCATCACTGTCACAGTTAGATTAGAGTGTGAGTTAAAGAGTAATACATTAACCAGGGTTAGTGCATGGAGATTGTT,0.0119
